Results gathered from unrelated publications.
Parts stem from different laboratories: compare values within a part only.

Set 1
Target: Sal-like protein 4, full length isoform A (SALL4, Homo sapiens, UniProt Q9UJQ4, residues 1-1053)
Sequence of UniProt Q9UJQ4 (whole entry, looked up): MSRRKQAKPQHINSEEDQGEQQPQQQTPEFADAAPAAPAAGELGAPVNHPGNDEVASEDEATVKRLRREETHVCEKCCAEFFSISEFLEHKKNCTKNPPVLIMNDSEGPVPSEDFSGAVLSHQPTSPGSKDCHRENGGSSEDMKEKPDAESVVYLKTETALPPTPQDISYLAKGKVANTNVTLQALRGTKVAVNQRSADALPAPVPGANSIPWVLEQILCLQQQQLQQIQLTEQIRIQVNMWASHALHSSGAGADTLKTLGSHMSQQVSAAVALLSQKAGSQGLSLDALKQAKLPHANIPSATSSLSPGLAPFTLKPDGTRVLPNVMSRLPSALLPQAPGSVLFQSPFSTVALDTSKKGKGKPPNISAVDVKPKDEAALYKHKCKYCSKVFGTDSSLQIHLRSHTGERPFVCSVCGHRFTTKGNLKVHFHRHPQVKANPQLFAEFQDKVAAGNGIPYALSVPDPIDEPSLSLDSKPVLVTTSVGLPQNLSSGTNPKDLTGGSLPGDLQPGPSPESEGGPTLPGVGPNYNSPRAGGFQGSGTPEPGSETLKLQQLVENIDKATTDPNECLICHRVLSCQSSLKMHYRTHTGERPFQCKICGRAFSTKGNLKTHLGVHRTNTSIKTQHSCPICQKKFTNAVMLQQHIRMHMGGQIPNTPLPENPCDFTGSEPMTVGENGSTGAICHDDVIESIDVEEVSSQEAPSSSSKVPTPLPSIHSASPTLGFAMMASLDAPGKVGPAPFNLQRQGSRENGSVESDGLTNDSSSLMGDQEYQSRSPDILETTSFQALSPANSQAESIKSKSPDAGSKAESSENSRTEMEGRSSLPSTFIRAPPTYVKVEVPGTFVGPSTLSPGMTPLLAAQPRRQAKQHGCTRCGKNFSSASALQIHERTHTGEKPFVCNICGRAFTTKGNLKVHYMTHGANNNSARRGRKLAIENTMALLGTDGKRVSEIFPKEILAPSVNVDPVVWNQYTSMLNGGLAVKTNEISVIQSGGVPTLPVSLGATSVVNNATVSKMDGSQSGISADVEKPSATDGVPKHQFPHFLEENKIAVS
Technique: universal PBM
Molecule type: double-stranded DNA, one strand shown
Sample: in vitro
Tested at: 600 nM
Setting: 8-mer, flanks averaged, mean of replicates
Direction: higher = stronger binding
Sequence | E-score
AAAGCCAC | 0.0124
GTCGGTTA | 0.0144
GAGTCCAC | -0.223
ATTAAACC | 0.237
CTCTCCCC | -0.298
AACCAACG | -0.093
AACAGCGC | -0.222
CAGTAATG | 0.165
AGGTGCAG | -0.23

Set 2
Target: Histone acetyltransferase KAT6A, both winged helices, GST fusion (KAT6A, Homo sapiens, UniProt Q92794, residues 1-181)
Technique: protein binding microarray
Molecule type: double-stranded DNA, one strand shown
Sample: in vitro
Tested at: not given
Setting: 8-mer, flanks averaged, mean of 2 arrays, mostly near background
Baseline: not given
Direction: higher = stronger binding
Residues (chain): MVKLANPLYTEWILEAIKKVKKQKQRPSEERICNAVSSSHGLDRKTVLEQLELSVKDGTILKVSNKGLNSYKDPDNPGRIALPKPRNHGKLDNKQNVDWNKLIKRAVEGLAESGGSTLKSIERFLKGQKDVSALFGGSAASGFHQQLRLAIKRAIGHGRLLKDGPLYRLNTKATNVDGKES
Sequence | E-score
AGCATGCA | -0.139
GGAACGAA | 0.0653
CGGTATCA | 0.174
TGCCCACA | -0.167
GCGATTCA | 0.192
GGGTGGCA | -0.164
GATCCCAC | -0.18
GTTGAACA | 0.0063
CTGAAGTC | 0.00897

Set 3
Target: TAR DNA-binding protein 43, full length, His tag (TARDBP, Homo sapiens, UniProt Q13148, residues 1-414)
Technique: RNA Bind-n-Seq
Molecule type: RNA
Sample: in vitro
Tested at: 20 nM
Setting: 6-mer, flanks averaged, single round
Together with: 150 mM KCl
Baseline: input library
Direction: higher = stronger binding
Sequence | 6-mer enrichment (R)
CGGGGA | 3.87
CGUGGU | 1.31
AUUGUC | 0.57
CGCCGG | 1.36

Mixed results
Molecule | target | assay | test system | conditions | how to read | measurement | result
PhoQ, residues 284 288 289 292 302 303 HSYLQF | PhoP, residues 12 14 15 18 19 QYCSL (Escherichia coli, UniProt P23836) | Sort-seq, item: YFP reporter | E. coli | PhoQ-PhoP variant library, together with: 10 µM Mg2+ | baseline: high Mg2+ state, higher = stronger signaling | fold induction | 15.9

A few entries again (set 2):
Sequence | E-score
AGCATGCA | -0.139
GGAACGAA | 0.0653
